Measurements gathered from unrelated publications.
Numbered parts are unrelated; each lists some results of a single study.

Study 1 — technique: protein binding microarray; form: double-stranded DNA, one strand shown; sample: in vitro; tested at: not given; reference: not given; reading: higher = stronger binding; quantity: E-score
Target: Histone acetyltransferase KAT6A, winged helix 2, GST fusion (KAT6A, Homo sapiens, UniProt Q92794, residues 85-181)
Setting: 8-mer, flanks averaged, mean of 2 arrays, mostly near background
Construct (chain): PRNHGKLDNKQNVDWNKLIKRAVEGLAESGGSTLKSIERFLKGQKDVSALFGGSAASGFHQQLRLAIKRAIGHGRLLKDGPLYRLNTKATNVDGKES
ATATAGCA: 0.075
ACAGTAGA: -0.134
GCTCACAC: -0.0543
AGCTATTC: -0.162
TACGAGGA: -0.0997
ACGAAAAA: -0.0301
GCAATGCC: 0.00677
ACGCTTTC: -0.133
CAAGGTGA: -0.092
GCTGAAGC: 0.108
CAGGAGTA: -0.0135
AAGGGCTG: 0.0886
CCACGTTC: -0.17
ATCTTTAC: -0.0234
AATGGGGG: -0.147
CCGCCACG: 0.048
ATTAACGG: -0.081
GAGTGCGC: 0.0254
CGCTAAAG: 0.0179
TTATCGAA: 0.0395

Study 2 — technique: RNA Bind-n-Seq; form: RNA; sample: in vitro; tested at: 365 nM; reference: no-protein control; reading: higher = stronger binding; quantity: RBNS enrichment (R)
Target: RNA binding protein fox-1 homolog 2, RRM domain, GST-SBP tag (RBFOX2, Homo sapiens, UniProt O43251-10, residues 100-194)
Setting: natural RNA segment, single round, ends assumed
Residues (chain): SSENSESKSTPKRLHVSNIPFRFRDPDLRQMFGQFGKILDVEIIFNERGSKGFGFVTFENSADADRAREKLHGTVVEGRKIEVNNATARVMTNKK
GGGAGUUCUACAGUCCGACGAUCCAAGGAAAUUUUAAAUUCUGGGACACUGAGUUAGAUGGUAAAUACUGACUUACGAAAGUUGAAUUGGGUGAGGCGGGCAAAUCACCUGAGGUCAGCAGUUUGAGACUAGCUGGAAUUCUCGGGUGCCAA: 0.607
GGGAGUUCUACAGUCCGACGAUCUGACAGUCACCUGGGGUCCCCCCUCUCCCUGGUUCCACCUUUCUGAGGAGGAGCCUGGAGUCAGGGCUGGGUUUUGGAUUAACCCAUCCUUCCUAGUUAACACCUUUUUGUGGAAUUCUCGGGUGCCAA: 0.258
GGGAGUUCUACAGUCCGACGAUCGUACAUGUGAUGUUUGACUGUACCAUCGACUGUUAUGGAAGUUCAGCGUUGUAUGUCUCUCUACACUGUGGUGCACUUAACUUGUGGAUUUUUUAUACUAAAAAUGUAGAUGGAAUUCUCGGGUGCCAA: 0.504
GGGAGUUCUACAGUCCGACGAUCGAUUUCUCUGCAUAAUUUCUCAAUAUCUUUAGCACAGUAUGGUGAUGAUGACUUUUAAGCAUUUACAUCACGUACUCAUAACCUAUUAUGAAAAUAAAUGAAACUGGCUGUGGAAUUCUCGGGUGCCAA: 0.673
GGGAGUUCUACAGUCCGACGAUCAGUAAAAUGUAUAUAACUCUUACCUGUUGUCAUUCUUUUUCUUUUAAAUUUGUUGCUAAUCUCUGAUAAUGAAGAUUCUUACUCUGAUUCUCAGCUGAGCUGUGAGGGCUUGGAAUUCUCGGGUGCCAA: 0.987
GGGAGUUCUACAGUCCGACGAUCAGGGAAAAACAACAGCAAUAACAUUCAUAUCUCUGGAGCAGCUAACUCAUACACGUAAUGUCUGCUUUUCGUACAGAACUAGCCAAUGUAAAAACAGUUCACCUGUAAAUUGGAAUUCUCGGGUGCCAA: 0.479
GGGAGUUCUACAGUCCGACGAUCGGCUCAUACUUAUAUAGCACUUACUUUGUUGCAAGUACUGCUGUAAAUAAAUGCUUUAUGCAAACCAUUUGCCUUAUCCUUAUAAGGACCUUAUGGGAGAUGAAUCAUUAUGGAAUUCUCGGGUGCCAA: 0.256
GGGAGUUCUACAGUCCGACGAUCAUCGAGGCAAAGUAAUUAGUCAUGUUUGGGUUUGCUUUUUUUGUUGAUAAGAUUAACAAUGUGUGCUUUGUAAAUGCCUUUUUCCUUAUCUUCUAUGUCUCUGUCAAGGAUGGAAUUCUCGGGUGCCAA: 0.597
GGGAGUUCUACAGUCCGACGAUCUUAGGGGCUUGGGGUUUUCCUGAGGCAAGAGGUCAUGGCUGAAUGGGCCUGUGCCGUGAAUUGAAUGGAACACUACUUUGAGGCCCUUGGAGAGUGACAGCAGCUAUAGGUGGAAUUCUCGGGUGCCAA: 0.883
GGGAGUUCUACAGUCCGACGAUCACACGGCAUGGGUUUGUUGACACUUUAAUUUUGCUAUAAAUGUGUGGAAUCACAAGUUGCUGUGAUACUUCAUUUUUAAAUUGUGAACUUUGUACAAAUUUUGUCAUGCUUGGAAUUCUCGGGUGCCAA: 1.94
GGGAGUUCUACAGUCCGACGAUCCUGGGGGAGGCCUGCUAUCCUGCCUCUGGGCCACUUGAGGGGCCUCAGGAAGUGUGUGCUUGUGGCUGCAUCUGCCCGUCUCCCUGGCCCACCAUGUGGCUGCAGGCCAAUGGAAUUCUCGGGUGCCAA: 6.84
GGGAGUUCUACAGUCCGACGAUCCUCAAAGCAUCUGACUCACCUGCAUGAUCACAAGCUUUCUUUGACGGUUUCUCCCAUCCGUGUUCCAGCAUCUAACCUUUUACUUUUGCAUAGGAAAUACUUGAUUUAAUUGGAAUUCUCGGGUGCCAA: 1.83

Study 3 — technique: protein-binding microarray; form: double-stranded DNA, one strand shown; sample: in vitro; tested at: 0.8 µM; setting: whole 60-bp probe, no competitor; reading: higher = stronger binding; quantity: fluorescence intensity
Target: Centromere-binding protein 1, full length, N-terminal tag (CBF1, Saccharomyces cerevisiae, UniProt P17106, residues 1-351)
UniProt P17106, sequence (whole entry, looked up): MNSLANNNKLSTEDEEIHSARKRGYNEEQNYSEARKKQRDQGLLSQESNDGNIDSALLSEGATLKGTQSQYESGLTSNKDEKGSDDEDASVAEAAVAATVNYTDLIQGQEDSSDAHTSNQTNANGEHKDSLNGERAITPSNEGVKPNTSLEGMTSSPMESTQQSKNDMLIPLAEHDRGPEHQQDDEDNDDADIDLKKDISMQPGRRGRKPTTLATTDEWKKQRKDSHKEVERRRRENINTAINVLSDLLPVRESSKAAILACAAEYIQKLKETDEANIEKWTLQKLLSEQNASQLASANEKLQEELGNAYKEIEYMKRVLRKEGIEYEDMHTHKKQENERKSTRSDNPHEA
GAATTGGCTTATTAAGACATCAGAGTTCATTAATAGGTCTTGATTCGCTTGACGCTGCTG: 532 a.u.
CTAAATCCCAGACGTCGCGTGCTAAAAATCCTTTTCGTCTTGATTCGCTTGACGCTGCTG: 737 a.u.
CTATCGGGAGGTCAATTGGTGGTGCCGGTTGTGTTCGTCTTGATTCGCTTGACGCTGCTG: 454 a.u.
CTAATACATATACTTCTCGTGCAGTATACTGGATTCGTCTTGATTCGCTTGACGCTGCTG: 586 a.u.
GAATTGTTCCACGATCACCTCATATCACCGTTATAGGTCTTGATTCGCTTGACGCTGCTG: 501 a.u.
CTAACTTCTCGGCATGGGGTGAGTAAATTCATATTCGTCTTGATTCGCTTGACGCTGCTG: 529 a.u.
CTAACTAGTGTAACTGCTGATGTCTTCCATTTGTTCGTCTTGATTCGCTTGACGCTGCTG: 522 a.u.
GAAAACAGAACATTTGGCCACGTGAACAGGTCATAGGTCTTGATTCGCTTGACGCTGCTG: 4540 a.u.
CTACCGCTAATTAGTAACGTGCCGTGATTCTTTTTCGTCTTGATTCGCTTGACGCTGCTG: 1420 a.u.
GAACTTAGACCGCACGTGATGATATTGAGAAATTAGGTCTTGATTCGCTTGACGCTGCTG: 11200 a.u.
TGTACGAAGCTATCCATCGTGGATATAGTAGTTAGGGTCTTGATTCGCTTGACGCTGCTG: 508 a.u.
GAAAACATGGATCTCAGCGTGGTAACATCGCTCTAGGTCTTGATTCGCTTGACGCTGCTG: 479 a.u.
GAACCAGACACGTCGCACGTGCTCTTGCAGAGATAGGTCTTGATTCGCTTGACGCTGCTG: 10100 a.u.
CTAAGTGATTTTGTAGGCGTGATCAAGTGCTTATTCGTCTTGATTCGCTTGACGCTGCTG: 1290 a.u.
CTAATGTGGAAATGGCATGACACCCCCCCACACTTCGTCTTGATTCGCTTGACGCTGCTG: 522 a.u.
CTATGCCTTTACCCGCACGCTTAATATAATTTTTTCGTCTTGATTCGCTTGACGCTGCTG: 557 a.u.
GAATATATAAAAGAAGACGTGCTCTAAACAAAGTAGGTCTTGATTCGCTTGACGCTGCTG: 554 a.u.
GAATTTTGGTAGCGCCGCGTGGGAAACAATGCATAGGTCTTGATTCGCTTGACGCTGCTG: 552 a.u.
GAAGATGGACAGCACCGTGTGACTGAGTCTATATAGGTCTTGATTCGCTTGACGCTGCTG: 584 a.u.
CTATTCCAACACCATCACGTTATCAATTCTTTCTTCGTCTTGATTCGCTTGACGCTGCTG: 1470 a.u.

Study 4 — technique: aptamer microarray, sandwich; form: DNA with 2'F-ANA; sample: in vitro; tested at: 200 nM; added: Cy3 exosite-II aptamer, 400 nM; reading: higher = stronger binding; quantity: mean fluorescence intensity; strand: GGTTGGTGTGGTTGG
Target: Prothrombin, mature alpha-thrombin (F2, Homo sapiens, UniProt P00734)
Setting: whole 15-mer aptamer, many near background
2'F-ANA at 2 5 6 7 8 9 10 11 12 13: 90.8 a.u.
2'F-ANA at 6 7 9 10 11 12 13 15: 158 a.u.
2'F-ANA at 1 3 10 11 14: 57.8 a.u.
2'F-ANA at 1 3 4 5 6 7 8 10 11 13 14: 47.3 a.u.
2'F-ANA at 2 3 5 7 9 10 13 14 15: 52 a.u.
2'F-ANA at 1 3 4 5 7 8 9 10 14: 45.6 a.u.
2'F-ANA at 3 5 6 7 9 11 13 14 15: 54.4 a.u.
2'F-ANA at 1 2 5 6 10 11 12 14 15: 59.5 a.u.
2'F-ANA at 2 3 4 5 6 7 8 9 12 14: 58.9 a.u.
2'F-ANA at 1 7 10 12 15: 84.3 a.u.
2'F-ANA at 1 2 6 7 10 12 14: 47.3 a.u.
2'F-ANA at 1 2 3 5 6 9 10 13 14: 46.6 a.u.
2'F-ANA at 1 2 3 6 8 13 14: 73.5 a.u.
2'F-ANA at 5 6 8 9 10 12 13 15: 52.1 a.u.
2'F-ANA at 3 5 7 8 10 12 13 14: 51.4 a.u.
2'F-ANA at 3 4 5 7 9 10 11 12 14 15: 51.6 a.u.

Excerpt of the above (study 1):
GCTCACAC: -0.0543
AGCTATTC: -0.162
TACGAGGA: -0.0997
ACGAAAAA: -0.0301
GCAATGCC: 0.00677
ACGCTTTC: -0.133
CAAGGTGA: -0.092
GCTGAAGC: 0.108
